Published values gathered from unrelated publications.
Protocols differ between the studies behind these lines. Values joined by “and” are separate records of one study, mostly repeats; a detail may differ.
Target: Serine/threonine-protein kinase PAK 4 (PAK4, Homo sapiens, UniProt O96013)
Chain of UniProt O96013 (whole entry, unmodified, looked up): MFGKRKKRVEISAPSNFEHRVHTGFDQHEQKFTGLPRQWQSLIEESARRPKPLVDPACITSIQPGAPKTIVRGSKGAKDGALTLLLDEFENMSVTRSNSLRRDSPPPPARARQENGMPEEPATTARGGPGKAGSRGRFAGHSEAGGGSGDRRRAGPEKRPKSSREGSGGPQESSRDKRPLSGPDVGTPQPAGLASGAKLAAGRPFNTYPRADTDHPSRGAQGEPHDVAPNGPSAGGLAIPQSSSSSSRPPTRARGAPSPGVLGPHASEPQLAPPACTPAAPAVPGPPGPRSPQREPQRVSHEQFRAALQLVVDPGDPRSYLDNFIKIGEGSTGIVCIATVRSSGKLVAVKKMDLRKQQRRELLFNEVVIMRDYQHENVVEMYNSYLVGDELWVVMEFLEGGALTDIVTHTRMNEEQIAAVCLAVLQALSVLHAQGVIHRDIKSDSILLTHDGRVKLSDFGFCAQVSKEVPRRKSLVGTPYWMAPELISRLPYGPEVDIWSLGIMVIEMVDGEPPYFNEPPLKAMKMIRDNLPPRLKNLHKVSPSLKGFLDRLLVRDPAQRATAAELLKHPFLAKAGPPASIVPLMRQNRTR

Compound	test	setting	how to read	endpoint	value
O=C=[N][Ru-4]123([n]4c5ccc(O)cc5c5c6c(c7cc(F)c[n+]1c7c54)C(=O)NC6=O)[S+]1CC[S+]2CC[S+]3CC1 (centres unmarked)	enzyme activity	100 nM, human enzyme, added: 10 µM ATP	baseline: untreated	remaining activity	104%
COc1ccc(NC(=O)Nc2ccc3c(c2)C(=O)N(C(C)CO)CC(C)C(CN(C)Cc2ccc4c(c2)OCO4)O3)cc1 (centres unmarked)	binding, competition with immobilised ligand	10 µM		remaining binding	100%
C=CC(=O)Nc1cccc(-c2cnc3[nH]cc(C(=O)NC(C)(C)C)c3n2)c1	enzyme activity, inhibitor	0.1 µM		inhibition	13%
COCC12C(=O)NC3C4(C(OC)CC1O)C1CC5(O)C(OC)C(O)C(OC(C)=O)(C1C5OC(=O)c1ccccc1)C3(O)C(OC)C24 (centres unmarked)	kinase activity, inhibitor, ProQinase kinase profiling	25 µM	baseline: control	remaining activity	114% and 97%
COc1cc(Nc2nc(C)cc(-c3cnn4nc(OC)ccc34)n2)cc(C(F)(F)F)c1	inhibitor	1 µM	baseline: control	remaining activity	88%
Cc1cccc(-c2ccc3nc(NC(=O)C4CCOCC4)nn3c2)c1	enzyme activity, Dundee kinase panel	10 µM		remaining activity	101%
Cc1cccc(O[C@H]2CCC[C@@H](C(C)CNCc3ccncc3)C2)c1 (relative stereo)	enzyme activity, inhibitor	1 µM		inhibition	-5%
CNC(=O)C[C@H](Cc1ccc(C#N)cc1)NC(=O)c1cc(-c2ccc(CN[C@H](C)c3ccc(C)cc3)o2)ccc1Cl	enzyme activity, inhibitor	1 µM		activity vs control	98%
Cc1cnc2nc1Nc1cccc(c1)COC/C=C/COCc1cc(ccc1OCCN1CCOCC1)N2	binding	0.1 µM		remaining binding	90%
CC(=O)N1c2ccc(-c3ccc(CNC(=O)c4cn5cc(-c6cnc(N)nc6)nc(N6CCOCC6)c5n4)cc3)cc2CC[C@@H]1C	KINOMEscan	10 µM		remaining binding	86%
Cc1ccc(C)c(-c2ccc3nc(NC(=O)C4CCCCC4)nn3c2)c1	enzyme activity, Dundee kinase panel	10 µM		remaining activity	94%
CN1CC[C@@H](COc2cnc(C#N)cc2-c2ccn3nc(NC(=O)C4CC4)cc3c2)C1	inhibitor, KinaseProfiler panel	1 µM		inhibition	8%
Nc1ncc2c(n1)-c1c([nH]c3ccc(C4=CCOCC4)cc13)CCC2	binding, competition with immobilised ligand	1 µM		remaining binding	100%
C=CC(=O)N1CCCC(n2c(=O)c3ncccc3n(Cc3ccc(Oc4ccccc4)cc3)c2=O)C1 (centres unmarked)	cell-free assay, competition with immobilised ligand	1 µM		remaining binding	100%
NC(=O)C[C@H]1CCc2sc3ncnc(O[C@H]4CC[C@H](N5CCOCC5)CC4)c3c21	enzyme activity, inhibitor	10 µM		inhibition	4%
O=C(Cc1ccc(OCc2ccccc2)cc1)NC1(C(=O)O)CCN(C(=O)c2ccc(-c3cccc(Cl)c3)cc2)CC1	enzyme activity, inhibitor	10 µM		activity vs control	103%
CN1CCN(Cc2ccc(-c3ccc(CO[C@H]4CCC[C@@H]4NC(=O)c4cc(-c5cnn(C)c5)cnc4N)cc3)cc2)CC1	enzyme activity, inhibitor	0.1 µM		inhibition	0%
CN1CCN(Cc2ccc(NC(=O)c3cccc(C#Cc4cnc(N)c5ncccc45)c3)cc2C(F)(F)F)CC1	cell-free assay, competition with immobilised ligand	50 nM		remaining binding	76%
CNC(=O)C1CCN(c2cc(C)c(F)cc2NC(=O)c2ccc(-c3cc(O)ccc3C)c(C)c2)CC1	binding, competition with immobilised ligand	1 µM		remaining binding	57%
Cc1ccc(-c2c(/C=C(\C#N)C(=O)NC(C)C)n(CCCO)c3ncnc(N)c23)cc1	cell-free assay, competition with immobilised ligand	1 µM		remaining binding	92%
C=C1CCCCCCCCCC(CO)C1=O (centres unmarked)	cell-free assay, competition with immobilised ligand	10 µM		remaining binding	100%
C[C@H]1CN(C(=O)c2cn(-c3ccnc(N)n3)c3cc(C#CC4(O)CCCCC4)ccc23)CCN1	enzyme activity, inhibitor, FRET	1 µM		inhibition	100%
CC(C)=CC1OC(C)(C)C2C=C3C(=O)C(Cl)=CC(O)C3C3C(O)C4OC4C(=O)C132 (centres unmarked)	cell-free assay, competition with immobilised ligand	10 µM		remaining binding	100%

A few entries again:
Compound	test	setting	how to read	endpoint	value
COc1ccc(NC(=O)Nc2ccc3c(c2)C(=O)N(C(C)CO)CC(C)C(CN(C)Cc2ccc4c(c2)OCO4)O3)cc1 (centres unmarked)	binding, competition with immobilised ligand	10 µM		remaining binding	100%
